Published values from different studies.
Lines come from different studies, so protocols differ. Numbers after ± are the reported error.

| SMILES | tested on | assay | test system | setting | endpoint | value |
| --- | --- | --- | --- | --- | --- | --- |
| O=C(O)CCC(NP(=O)(O)OCCC[C@@H](NC(=O)CCC(NC(=O)CCCCCNC(=O)CCCCCNC(=O)c1ccc([18F])cc1)C(=O)O)C(=O)O)C(=O)O (stereo partly shown) | CWR22Rv1 tumour model |  | host not given, kidney | intravenous, 2 h, tumour-bearing | tracer uptake | 7.13 %ID/g |
| CCC(=O)N(C)c1ccc(Cl)c(Cl)c1 | Salmonella typhimurium | Ames test | TA1537 | 0.50 mg/plate, with rat liver S9 | revertants | 2 ± 3.2 revertants/plate |
| CN(C)CC1CCCCC1(O)c1cccc(O)c1 (stereo not shown) | P-glycoprotein |  | Caco-2 TC7 | 1 µM, 3 h, pH 7.4, with: elacridar 4 µM | efflux ratio | 1.2 |
| O=C(O)CCC(NP(=O)(O)OCCC[C@@H](NC(=O)CCC(NC(=O)c1ccc([18F])cc1)C(=O)O)C(=O)O)C(=O)O (stereo partly shown) | PC-3 tumour model |  | host not given, lung | intravenous, 2 h, tumour-bearing | tracer uptake | 0.29 %ID/g |
| COc1cc(C(=O)NCCOCCOCCOCCNC(=O)c2ccc([18F])nc2)ccc1NC(=O)C1NC(CC(C)(C)C)C(C#N)(c2ccc(Cl)cc2F)C1c1cccc(Cl)c1F (stereo not shown) | SJSA-1 tumour model |  | host not given, blood | 1 h, tumour-bearing | tracer uptake | 1.08 %ID/g |
| C[C@@](O)(C(F)F)[C@H](NC(=O)c1ccc(C#CC#CC2CC2)cc1)C(=O)NO |  |  | mouse, plasma | intraperitoneal, 40 mg/kg | CL/F | 27.9 mL/min/kg |
| CC[C@H](C)C(=O)N1CCC(NC(=O)Nc2ccc(OC(F)(F)F)c(F)c2)CC1 |  |  | human, plasma | oral, 8 mg, single dose, fed, healthy volunteers | Vd/F | 164 L |
| O=C(O)CCC(NP(=O)(O)OCCC[C@@H](NC(=O)CCC(NC(=O)CCCCCNC(=O)c1ccc([18F])cc1)C(=O)O)C(=O)O)C(=O)O (stereo partly shown) | PC-3 tumour model |  | host not given, tumour | intravenous, 2 h, tumour-bearing | tracer uptake | 0.38 %ID/g |
| N=C(N)NCCC[C@@H]1NC(=O)[C@H](CCCCNC(=O)CC[C@H](NC(=O)CCOCCOCCOCCOCCNC(=O)CC[C@H](NC(=O)CN2CCN(CC(=O)O)CCN(CC(=O)O)CCN(CC(=O)O)CC2)C(=O)NCCOCCOCCOCCOCCC(=O)N[C@@H](CCC(=O)NCCCC[C@@H]2NC(=O)[C@@H](Cc3ccccc3)NC(=O)[C@H](CC(=O)O)NC(=O)CNC(=O)[C@H](CCCNC(=N)N)NC2=O)C(=O)NCCCC[C@@H]2NC(=O)[C@@H](Cc3ccccc3)NC(=O)[C@H](CC(=O)O)NC(=O)CNC(=O)[C@H](CCCNC(=N)N)NC2=O)C(=O)NCCCC[C@@H]2NC(=O)[C@@H](Cc3ccccc3)NC(=O)[C@H](CC(=O)O)NC(=O)CNC(=O)[C@H](CCCNC(=N)N)NC2=O)NC(=O)[C@@H](Cc2ccccc2)NC(=O)[C@H](CC(=O)O)NC(=O)CNC1=O [indium-111 labelled] |  |  | female athymic nude mice, eyes | intravenous, 3 µCi, 0.5 h, U-87 MG glioma xenograft | tissue uptake | 0.87 ± 0.24 %ID/g |
| COc1ccc(CNc2nc(N3CCC[C@H]3CO)ncc2C(=O)NN)cc1Cl | Salmonella typhimurium |  | TA1535 | 1000 µg/plate, 48 h | revertant count | 41 ± 6 |
| CN[C@](C)(C[18F])C(=O)O | DU-145 tumour model |  | host not given, blood | 1 h, tumour-bearing | tracer uptake | 1.1 %ID/g |
| N=C(N)NCCC[C@@H]1NC(=O)[C@H](CCCCNC(=O)CNC(=O)CNC(=O)CNC(=O)CC[C@H](NC(=O)CCOCCOCCOCCOCCNC(=O)CC[C@H](NC(=O)CN2CCN(CC(=O)O)CCN(CC(=O)O)CCN(CC(=O)O)CC2)C(=O)NCCOCCOCCOCCOCCC(=O)N[C@@H](CCC(=O)NCC(=O)NCC(=O)NCC(=O)NCCCC[C@@H]2NC(=O)[C@@H](Cc3ccccc3)NC(=O)[C@H](CC(=O)O)NC(=O)CNC(=O)[C@H](CCCNC(=N)N)NC2=O)C(=O)NCC(=O)NCC(=O)NCC(=O)NCCCC[C@@H]2NC(=O)[C@@H](Cc3ccccc3)NC(=O)[C@H](CC(=O)O)NC(=O)CNC(=O)[C@H](CCCNC(=N)N)NC2=O)C(=O)NCC(=O)NCC(=O)NCC(=O)NCCCC[C@@H]2NC(=O)[C@@H](Cc3ccccc3)NC(=O)[C@H](CC(=O)O)NC(=O)CNC(=O)[C@H](CCCNC(=N)N)NC2=O)NC(=O)[C@@H](Cc2ccccc2)NC(=O)[C@H](CC(=O)O)NC(=O)CNC1=O [indium-111 labelled] |  |  | female athymic nude mice, muscle | intravenous, 3 µCi, 0.5 h, U-87 MG glioma xenograft | tissue uptake | 1.64 ± 0.42 %ID/g |
| COc1ccc(CNc2nc(N3CCC[C@H]3CO)ncc2C(=O)NNC(=O)c2cnc(N3CCC[C@H]3CO)nc2NCc2ccc(OC)c(Cl)c2)cc1Cl | Salmonella typhimurium |  | TA97a | 125 µg/plate, 48 h | revertant count | 98 ± 5 |

Excerpt of the above:
| SMILES | tested on | assay | test system | setting | endpoint | value |
| --- | --- | --- | --- | --- | --- | --- |
| O=C(O)CCC(NP(=O)(O)OCCC[C@@H](NC(=O)CCC(NC(=O)CCCCCNC(=O)c1ccc([18F])cc1)C(=O)O)C(=O)O)C(=O)O (stereo partly shown) | PC-3 tumour model |  | host not given, tumour | intravenous, 2 h, tumour-bearing | tracer uptake | 0.38 %ID/g |
